Assay results collected from several papers.
± gives the spread as reported.
DRD2: D(2) dopamine receptor (DRD2, Homo sapiens, UniProt P14416)
Chain of UniProt P14416 (whole entry, looked up): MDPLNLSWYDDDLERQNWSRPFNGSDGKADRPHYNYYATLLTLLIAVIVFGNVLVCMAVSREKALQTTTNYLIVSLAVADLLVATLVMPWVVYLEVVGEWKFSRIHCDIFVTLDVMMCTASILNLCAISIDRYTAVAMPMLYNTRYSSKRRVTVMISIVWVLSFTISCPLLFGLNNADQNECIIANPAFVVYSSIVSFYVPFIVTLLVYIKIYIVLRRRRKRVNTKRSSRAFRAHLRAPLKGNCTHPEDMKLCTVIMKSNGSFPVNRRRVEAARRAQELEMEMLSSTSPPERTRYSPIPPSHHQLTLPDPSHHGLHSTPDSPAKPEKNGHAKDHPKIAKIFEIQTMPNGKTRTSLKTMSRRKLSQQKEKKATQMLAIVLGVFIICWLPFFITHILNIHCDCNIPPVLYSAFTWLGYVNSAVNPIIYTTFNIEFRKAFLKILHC
DRD2 long isoform: D(2) dopamine receptor, long isoform (DRD2, Homo sapiens, UniProt P14416)

Cc1ccc(NS(=O)(=O)c2c(C)[nH]c(C)c2C(=O)N2CCCC2)cc1F has an IC50 of over 100 µM (DRD2).
CC(C)NCc1ccc(-c2cc(Cl)ccc2Cl)o1 gave a Ki of 649 nM (DRD2; ligand displacement, radioligand).
With CN1CCN(c2cn(S(=O)(=O)c3ccccc3)c3ccccc23)CC1 the Ki was 532 ± 63 nM (DRD2 long isoform; binding, radioligand displacement; HEK293 membranes; 1 h, 37 °C, together with: [3H]-raclopride).
CC1Cc2ccccc2N1C(=O)CN1CCN(Cc2ccccc2)CC1 (stereo not shown) gave an EC50 of 0.251 nM (DRD2; agonist).
The IC50 of Cc1[nH]c(C)c(S(=O)(=O)Nc2ccc(F)cc2)c1C(=O)N1CCCC1 is reported as over 100 µM (DRD2).
With OCCN1CCN(CCOc2ccccc2-c2ccccc2)CC1 the Ki was 1020 nM (DRD2; ligand displacement, radioligand).
For O=C1CCc2ccc(OCCCCN3CCN(c4cccc5c4ccn5Cc4ccccc4)CC3)cc2N1, the Ki was 20.9 nM (DRD2; cell-free assay).
CN1CCN(c2ccc3cnn(Cc4cccc5ccccc45)c3c2)CC1 gave a Ki of 1250 ± 214 nM (DRD2 long isoform; binding, radioligand displacement; HEK293 membranes; 1 h, 37 °C, together with: [3H]-raclopride).
Cc1[nH]c(C)c(S(=O)(=O)NC(C)(C)C)c1C(=O)N1CCCC1 has an IC50 of over 100 µM (DRD2).
The Ki of CCCn1ccc2c(N3CCN(CCCCOc4ccc5c(c4)NC(=O)CC5)CC3)cccc21 is reported as 55 nM (DRD2; cell-free assay, radioligand).
